Experimental data gathered from unrelated publications.
Protocols differ between the studies behind these lines.
RET V804M: Proto-oncogene tyrosine-protein kinase receptor Ret (RET, Homo sapiens, UniProt P07949, V804M)
RET: Proto-oncogene tyrosine-protein kinase receptor Ret (RET, Homo sapiens, UniProt P07949)
RET V804L: Proto-oncogene tyrosine-protein kinase receptor Ret (RET, Homo sapiens, UniProt P07949, V804L)

| Structure (SMILES) | target | assay | conditions | how to read | remaining binding [%] |
| --- | --- | --- | --- | --- | --- |
| CNC1C[S+]2CC[S+]3CC[S+](C1)[Ru-4]321([N]=C=S)[n]2c3ccc(OC)cc3c3c4c(c5cc(F)c[n+]1c5c32)C(=O)NC4=O (stereo not drawn) | RET V804M | KinomeScan | 0.1 µM | baseline: untreated | 82 |
| CCN1CCN(Cc2ccc(NC(=O)c3ccc(C)c(NC(=O)c4cncc(-c5cccs5)c4)c3)cc2C(F)(F)F)CC1 | RET | binding, competition with immobilised ligand | 1 µM | – | 0.1 |
| Cc1c[nH]c2nccc(-c3ccc(C(=O)N[C@@H]4c5c(F)cc(C(F)F)cc5C[C@@H]4O)cn3)c12 | RET | binding, competition with immobilised ligand | 3 µM | – | 29 |
| C=CC(=O)N1CCCC(n2c(=O)c3ncccc3n(Cc3ccc(Oc4ccccc4)cc3)c2=O)C1 (stereo not drawn) | RET V804M | cell-free assay, competition with immobilised ligand | 1 µM | – | 96 |
| CCN1CCN(Cc2ccc(C(=O)Nc3ccc(C)c(NCc4cnc5[nH]ccc5c4OC)c3)cc2C(F)(F)F)CC1 | RET V804M | binding, competition with immobilised ligand | 1 µM | – | 2.2 |
| CN1CCN(Cc2ccc(NC(=O)c3cccc(C#Cc4cnc(N)c5ncccc45)c3)cc2C(F)(F)F)CC1 | RET | cell-free assay, competition with immobilised ligand | 50 nM | – | 0.1 |
| COc1c(Cl)cccc1Nc1c(-c2ccncc2C#C[C@@]2(C)CCCN2C(=O)/C=C/CN(C)C)[nH]c2c1C(=O)NCC2 | RET V804M | binding, competition with immobilised ligand | 3 µM | – | 93 |
| C=CC(=O)N1CCc2ccc(-n3c(=O)ccc4cnc5ccc(-c6cnn(C)c6)cc5c43)cc21 | RET V804L | KINOMEscan | 1 µM | baseline: DMSO control | 94 |
| CNC(=O)C1CCN(c2cc(C)c(F)cc2NC(=O)c2ccc(-c3cc(O)ccc3C)c(C)c2)CC1 | RET | binding, competition with immobilised ligand | 1 µM | – | 45 |
| Cc1cc(NC(=O)[C@H](O)c2cc(F)cc(F)c2)ccc1-c1cnc(N)c(C(=O)NC(C)C)c1 | RET (Homo sapiens, UniProt P07949, M918T) | binding, competition with immobilised ligand | 1 µM | – | 50 |
| CC(C)=CC1OC(C)(C)C2C=C3C(=O)C(Cl)=CC(O)C3C3C(O)C4OC4C(=O)C132 (stereo not drawn) | RET V804M | cell-free assay, competition with immobilised ligand | 10 µM | – | 96 |
| Cc1ccc(-c2c(/C=C(\C#N)C(=O)NC(C)C)n(CCCO)c3ncnc(N)c23)cc1 | RET V804L | cell-free assay, competition with immobilised ligand | 1 µM | – | 96 |
| Nc1ncc2c(n1)-c1c([nH]c3ccc(C4=CCOCC4)cc13)CCC2 | RET | binding, competition with immobilised ligand | 1 µM | – | 77 |
| CC(=O)N1c2ccc(-c3ccc(CNC(=O)c4cn5cc(-c6cnc(N)nc6)nc(N6CCOCC6)c5n4)cc3)cc2CC[C@@H]1C | RET | KINOMEscan | 10 µM | – | 60 |
| Cc1cnc2nc1Nc1cccc(c1)COC/C=C/COCc1cc(ccc1OCCN1CCOCC1)N2 | RET V804L | binding | 0.1 µM | – | 5.2 |
